Published values pooled from the literature.
± gives the spread as reported.
Cell line: A549

The IC50 of `COc1ccc(/C=C/c2nc3ccc(Br)cc3nc2/C=C/c2ccc(OC)cc2)cc1` is reported as 38.2 µM (cell growth or viability, MTT; 72 h).
`O=Cc1cccc(NC(=O)Cn2cc(COc3ncnc4[nH]cnc34)nn2)c1` gave an IC50 of 13.9 µM (cell growth or viability, MTT).
The IC50 of `Cc1cc(C)c(C2C3CCCN3C3(C(=O)Nc4ccccc43)C2C(=O)c2cccc(Cl)c2)c(C)c1` (centres unmarked) is reported as under 10 µM (cell growth or viability, MTT).
For `C=CCc1ccc(O)c(-c2ccc(O)c(CC=C)c2)c1`, the IC50 was 10 µM (cell proliferation, MTS; 24 h, with: 10 µM BLM).
With `CC(=NN=C(N)[S-])C(C)=NN=C(N)[S-].N.N.O=[N+]([O-])[O-].[Co+3]` the IC50 was over 500 µM (cell viability, MTT; 24 h hypoxic, 48 h normoxic, hypoxic treatment).
For `CCN1CCC2(CC1)C/C(=N\N=C\c1ccc(N(C)C)cc1)c1ccccc1O2`, the IC50 was 48.5 µM (cell growth or viability, MTT; 48 h).
`O=[N+]([O-])c1cccc(/C=C/c2nc3ccc([N+](=O)[O-])cc3nc2/C=C/c2cccc([N+](=O)[O-])c2)c1` gave an IC50 of over 100 µM (cell growth or viability, MTT; 72 h).
For `C/C(=N/NC(=O)c1cn(-c2ccccc2)nc1-c1ccc(Cl)cc1)c1c(O)cc(C)oc1=O`, the IC50 was 31.2 µM (cell growth or viability, MTT; 48 h).
For `Cc1cc(C)c(C2CN(C)C3(C(=O)Nc4ccccc43)C2C(=O)c2ccc(F)cc2)c(C)c1` (centres unmarked), the IC50 was under 10 µM (cell growth or viability, MTT).
`Nc1nc(-c2ccc(NC(=O)c3cc4cc(Br)ccc4[nH]3)cc2)c(C(=O)c2ccccc2)[nH]1` has an IC50 of 14.2 µM (cell growth or viability, resazurin; 72 h).
`CC(=NNC(N)=S)C(C)=NNC(N)=S` has an IC50 of 16.4 ± 0.87 µM (cell viability, MTT; 24 h then 48 h recovery, normoxia).
For `Cc1cccc(C(=O)C2C(c3c(C)cc(C)cc3C)CN(C)C23C(=O)Nc2ccccc23)c1` (centres unmarked), the IC50 was 9.4 µM (cell growth or viability, MTT; 24 h).
The IC50 of `CC(C=NN=C(N)[S-])=NN=C(N)[S-].O=[N+]([O-])[O-].[Co+3].c1c[nH]cn1.c1c[nH]cn1` is reported as about 8.6 µM (cell viability, MTT; 24 h hypoxic, 48 h normoxic, hypoxic treatment).
With `CCOC(=O)c1[nH]c(N)nc1-c1cccc(NC(=O)c2cc3cc(OC)ccc3[nH]2)c1` the IC50 was 27.6 µM (cell growth or viability, resazurin; 72 h).
The IC50 of `Cc1cc(C)c(C2C3CCCN3C3(C(=O)Nc4ccccc43)C2C(=O)c2ccc(Br)cc2)c(C)c1` (centres unmarked) is reported as 13.5 µM (cell growth or viability, MTT; 48 h).
`O=C1Nc2ccccc2C1=NN=c1sc(-c2cccs2)nn1-c1ccc([N+](=O)[O-])cc1` has an IC50 of 23.2 µM (cell growth or viability).
`Brc1ccc2nc(/C=C/c3ccccc3)c(/C=C/c3ccccc3)nc2c1` has an IC50 of over 100 µM (cell growth or viability, MTT; 72 h).
`N.N.O=C([O-])C1(C(=O)[O-])CCC1.[Pt+2]` gave an IC50 of 190 ± 18.6 µM (cell viability, MTT; 4 h).
For `Brc1ccc2nc(/C=C/c3cccs3)c(/C=C/c3cccs3)nc2c1`, the IC50 was 12 µM (cell growth or viability, MTT; 72 h).
The IC50 of `CCn1c[n+](CC)c2ccc(C(=O)OC)cc21` is reported as 51.4 µM (cell growth or viability, crystal violet; 72 h).
`COc1cc2ncnc(Nc3ccc(Cl)cc3F)c2cc1OC` has an IC50 of over 10 µM (cell growth or viability, resazurin; 5 days).
`Cc1cc(C)c(C2C3CCCN3C3(C(=O)Nc4ccccc43)C2C(=O)c2ccccc2)c(C)c1` (centres unmarked) gave an IC50 of 28.9 µM (cell growth or viability, MTT; 24 h).
For `[NH2][Pt]12([NH2])([O]C(=O)CC(=O)[O]1)[O]C(=O)CC(=O)[O]2`, the IC50 was over 200 µM (cell viability, MTT; 96 h).
